Published values from different studies.
Lines come from different studies, so protocols differ.
Technique: cross-linking MS
FGG: FGG (Homo sapiens, UniProt P02679)
FARSA: FARSA (Homo sapiens, UniProt Q9Y285)
EPB42: EPB42 (Homo sapiens, UniProt P16452)

`YWHAE (Homo sapiens, UniProt P62258)` — result for cross-linked residues: “K50 to K68” (YWHAZ (Homo sapiens, UniProt P63104); cells; together with: iqPIR).
`SLC4A1 (Homo sapiens, UniProt P02730)`: cross-linked residues “D369 to K1715” (ANK2 (Homo sapiens, UniProt Q01484); together with: DSSO or DMTMM).
Under cross-linked residues, `POLR3G (Homo sapiens, UniProt O15318)` is recorded as “K125 to K231” (FGG; together with: DSSO).
Under cross-linked residues, `HSPA9 (Homo sapiens, UniProt P38646)` is recorded as “D496 to K12” (Hemoglobin subunit alpha (Homo sapiens, UniProt P69905); together with: DSSO or DMTMM).
Under cross-linked residues, `KRT8 (Homo sapiens, UniProt P05787)` is recorded as “K264 to K150” (KRT74 (Homo sapiens, UniProt Q7RTS7); cells; together with: BDP-NHP).
Under cross-linked residues, `ALB (Homo sapiens, UniProt P02768)` is recorded as “K499 to K83” (SPRED2 (Homo sapiens, UniProt Q7Z698); together with: DSSO).
`EMC8 (Homo sapiens, UniProt O43402)`: cross-linked residues “K100 to K136” (EMC2 (Homo sapiens, UniProt Q15006); purified complex; together with: DSSO).
`PGM2 (Homo sapiens, UniProt Q96G03)` — result for cross-linked residues: “A2 to E362” (KRT84 (Homo sapiens, UniProt Q9NSB2); together with: DSSO or DMTMM).
`ITIH2 (Homo sapiens, UniProt P19823)`: cross-linked residues “K605 to K460” (DTX3L (Homo sapiens, UniProt Q8TDB6); together with: DSSO).
Under cross-linked residues, `FARSB (Homo sapiens, UniProt Q9NSD9)` is recorded as “K467 to K481” (FARSA; cells; together with: iqPIR).
`XRCC6 (Homo sapiens, UniProt P12956)` — result for cross-linked residues: “K282 to K265” (XRCC5 (Homo sapiens, UniProt P13010); cells; together with: BDP-NHP).
Under cross-linked residues, `KRT8 (Homo sapiens, UniProt P05787)` is recorded as “K117 to K522” (DDX10 (Homo sapiens, UniProt Q13206); cells; together with: iqPIR).
Under cross-linked residues, `FARSB (Homo sapiens, UniProt Q9NSD9)` is recorded as “K467 to K481” (FARSA; cells; together with: BDP-NHP).
For `TASOR2 (Homo sapiens, UniProt Q5VWN6)`, cross-linked residues read “K362 to K10” (WDR76 (Homo sapiens, UniProt Q9H967); together with: DSSO).
`HSP90AB1 (Homo sapiens, UniProt P08238)` — result for cross-linked residues: “K435 to K390” (NOC3L (Homo sapiens, UniProt Q8WTT2); cells; together with: iqPIR).
For `VIM (Homo sapiens, UniProt P08670)`, cross-linked residues read “K294 to K286” (KRT7 (Homo sapiens, UniProt P08729); cells; together with: BDP-NHP).
`GYPA (Homo sapiens, UniProt P02724)` — result for cross-linked residues: “D132 to K200” (EPB42; together with: DSSO or DMTMM).
`TOMM70 (Homo sapiens, UniProt O94826)` — result for cross-linked residues: “K126 to K398” (NCL (Homo sapiens, UniProt P19338); cells; together with: BDP-NHP).
`UGP2 (Homo sapiens, UniProt Q16851)`: cross-linked residues “K124 to K20” (PNN (Homo sapiens, UniProt Q9H307); cells; together with: iqPIR).
`ANK1 (Homo sapiens, UniProt P16157)` — result for cross-linked residues: “K59 to D86” (EPB42; together with: DSSO or DMTMM).
For `SFPQ (Homo sapiens, UniProt P23246)`, cross-linked residues read “K332 to K102” (RAB10 (Homo sapiens, UniProt P61026); cells; together with: iqPIR).
`SPTBN1 (Homo sapiens, UniProt Q01082)`: cross-linked residues “K593 to K1248” (LMO7 (Homo sapiens, UniProt Q8WWI1); cells; together with: BDP-NHP).
Under cross-linked residues, `FGA (Homo sapiens, UniProt P02671)` is recorded as “K476 to K131” (NLRP3 (Homo sapiens, UniProt Q96P20); together with: DSSO).
For `CCT6A (Homo sapiens, UniProt P40227)`, cross-linked residues read “K199 to K400” (CCT8 (Homo sapiens, UniProt P50990); together with: DSSO).
Under cross-linked residues, `GAPDH (Homo sapiens, UniProt P04406)` is recorded as “K61 to K514” (RFC1 (Homo sapiens, UniProt P35251); cells; together with: iqPIR).
For `REN (Homo sapiens, UniProt P00797)`, cross-linked residues read “K315 to K121” (FGG; together with: DSSO).
`FUS (Homo sapiens, UniProt P35637)` — result for cross-linked residues: “K451 to K360” (ERLEC1 (Homo sapiens, UniProt Q96DZ1); together with: DSSO).
For `FGB (Homo sapiens, UniProt P02675)`, cross-linked residues read “K51 to K26” (DNAJB4 (Homo sapiens, UniProt Q9UDY4); together with: DSSO).
Under cross-linked residues, `GOLIM4 (Homo sapiens, UniProt O00461)` is recorded as “K581 to D25” (SLC4A1 (Homo sapiens, UniProt P02730); together with: DSSO or DMTMM).
For `FGG (Homo sapiens, UniProt P02679)`, cross-linked residues read “K231 to K180” (GNL3L (Homo sapiens, UniProt Q9NVN8); together with: DSSO).
For `KRT19 (Homo sapiens, UniProt P08727)`, cross-linked residues read “K265 to K7” (UTP11 (Homo sapiens, UniProt Q9Y3A2); cells; together with: iqPIR).
`CAND1 (Homo sapiens, UniProt Q86VP6)` — result for cross-linked residues: “K574 to K129” (MNS1 (Homo sapiens, UniProt Q8NEH6); cells; together with: BDP-NHP).

For quick reference, copied from above:
`PGM2 (Homo sapiens, UniProt Q96G03)` — result for cross-linked residues: “A2 to E362” (KRT84 (Homo sapiens, UniProt Q9NSB2); together with: DSSO or DMTMM).
`SLC4A1 (Homo sapiens, UniProt P02730)`: cross-linked residues “D369 to K1715” (ANK2 (Homo sapiens, UniProt Q01484); together with: DSSO or DMTMM).
